Experimental data pooled from the literature.
Lines come from different studies, so protocols differ. Values joined by “and” are separate records of one study, mostly repeats; a detail may differ. ± marks the error that the study gave. In brackets after ≈: the same amount, converted by molar mass.

| Structure (SMILES) | assay | test system | conditions | how to read | measurement | result |
| --- | --- | --- | --- | --- | --- | --- |
| Cc1cc(-c2nccc3c2ccn3CC(=O)Nc2ccc(-c3cnccn3)cn2)ccn1 | – | human | 20 mg once daily, multiple ascending dose | – | medical device site dermatitis | 22.2% |
| CN(C(=O)n1cnc(-c2cccnc2)c1)[C@H]1CC[C@H](O)CC1 | – | rat, cortex | oral, 10 mg/kg single dose, 24 h | – | tissue concentration | 15.1 ± 0.4 ng/g |
| COc1cccc(OC)c1-c1cc(C(=O)NC2(C(=O)O)C3CC4CC(C3)CC2C4)nn1-c1ccc(C(=O)N(C)CCCN(C)CCCN(C)C(=O)CN2CCN(CC(=O)[O-])CCN(CC(=O)[O-])CCN(CC(=O)[O-])CC2)cc1C(C)C.[177Lu+3] (stereo not drawn) | – | mouse, HT-29 xenograft | 24 h post injection, biodistribution | reference: tumour over lung uptake | tumour-to-lung ratio | 59.5 |
| COc1cc2[nH]c(C)c(-c3ccc(N(C)C)nc3)c(=O)c2cc1Cl | – | – | pH 7.4 | – | kinetic solubility | 6 to 12 µM |
| Cc1ccc([C@@H]2O[C@H](CO)[C@@H](O)[C@H](O)[C@H]2O)cc1Cc1ccc(-c2ccc(F)cc2)s1 | – | Japanese type 2 diabetes patients | 400 mg, day 18, 24 h urine collection | reference: baseline | urinary sodium excretion change | -11.8 mEq |
| COc1ccc(CNc2nc(-c3ccc(C(=O)O)cc3)nc3c2c2ccccc2n3C)cc1Cl | – | NSG mice | dose not given, day 3 of treatment | – | body weight | 21 g and 22 g and 23.9 g and 23.1 g |
| CC=CC1CCC(C2CCC(CCC)CC2)CC1 (stereo not drawn) | – | rat, fetus | 5000 ng/mL in perfusate, high dose, mixture of 21 LCMs | – | median fetal accumulation | 0.883 ng/g |
| Cc1ccc(Sc2ccccc2N2CCNCC2)c(C)c1 | measured: feeling abnormal | healthy adult men | oral, 10 mg daily, 12 days | – | participants with TEAE | 0% |
| c1csc(CNc2cc[nH]n2)c1 | alkaline comet | Hsd:ICR(CD-1) mice, female, liver | oral, 500 mg/kg/day, 3 days | – | tail DNA | 3.93% |
| Cc1cccnc1CNc1nc(-c2ccccn2)nc2ccccc12 | – | Japanese Pharmacopoeia disintegration test solution 2 | pH 6.8 | – | kinetic solubility | 0.073 mg/mL |
| Cc1cccc(CNC(=O)c2cn(CCNC(=O)c3ccccc3S)c3cc4c(cc3c2=O)OC(F)(F)O4)n1 | – | Sprague-Dawley rat, male, plasma | intramuscular, 30 mg/kg of parent compound | – | Cmax | 11.9 ± 3.71 ng/mL |
| CN1C(=O)[C@@H](NC(=O)c2nnc(Cc3ccccc3)[nH]2)COc2cccnc21 | phase I single ascending dose | human, male and female | oral, 200 mg, fasted | – | medical device site reaction incidence | 0% |
| O=C(N[C@H](Cc1c[nH]c2ccccc12)C(=O)Nc1ccncc1)c1ccc(-c2ccc(F)c(C(F)(F)F)c2)cc1F | – | Swiss Webster mouse, female, plasma | oral, 50 mg/kg, 8 h, 20% HPβCD vehicle | – | concentration | 1530 nM |
| COc1ccc([C@@H](O)c2cc(-c3ncnc4cc(N5CCOCC5)ccc34)c(F)cc2Cl)nn1 | – | locally advanced rectal cancer | oral, 100 mg, added: capecitabine and radiotherapy | – | incidence of proctalgia TEAE | 50% |
| Cc1cc(C)c(S(=O)(=O)N(C)CC(=O)N2CCC(C(N)=O)CC2)c(C)c1 | – | aqueous buffer | pH 7.4 | – | thermodynamic solubility | 784 µM (≈ 299 µg/mL) |
| [18F]c1ccc(-c2ccc3c(c2)[nH]c2ccncc23)cn1 | ex vivo biodistribution | B6SJL mouse, normal, blood | intravenous, 30 min | – | SUV | 0.289 ± 0.122 |
| FC(F)(F)c1ccc(CNc2ccc(Cc3c[nH]c4ncc(Cl)cc34)cn2)cn1 | measured: Nausea | patients with advanced solid tumours, non-TGCT cohort | oral, 1000 mg/day, any grade | – | treatment-related adverse events | 33% |
| CCCC1CCC(c2ccc(-c3ccc(F)c(F)c3)cc2)CC1 (stereo not drawn) | – | Sprague-Dawley rat, female, placenta | 5000 ng/mL in perfusate, 50 (unit not given), high dose, mixture of 21 LCMs | – | median placental accumulation | 203 ng/g |
| COc1ccc2c(c1)CN(C(=O)CCN1CCC(Cc3ccccc3)CC1)CC[S@@+]2[O-] | telemetry | conscious male beagle dogs | intravenous, 8 mg/kg, 24 h | – | QTc interval | 237 ± 21 ms |
| Cn1cc([C@H]2C[C@H]3CSC(N)=N[C@@]3(c3ccc(F)cc3F)CO2)cn1 | – | male 129/SVE mouse, brain | subcutaneous, 10 mg/kg, 6 h | – | brain concentration | 512 nM |
| Cc1nc2cccc(OCC(C)(C)C(=O)NC(C)C)c2c(N)c1C(=O)O | – | Sprague-Dawley rat, female, plasma | oral, 100 mg/kg, day 7 over day 1, 7-day repeated dosing | reference: day 7 over day 1 | AUClast ratio | 0.82 ± 0.3 |

| Structure (SMILES) | assay | test system | conditions | how to read | measurement | result |
| --- | --- | --- | --- | --- | --- | --- |
| CNC(=O)c1cc(Oc2ccc(NC(=O)Nc3cc(C(C)(C)C)nn3-c3ccc4ncccc4c3)c(F)c2)ccn1 | – | patients | oral, dose not given, cycles 1 and 2, Medium AUC subgroup | – | patients with grade 1 cardiac disorders | 7% |
| CNCc1ccc(-c2[nH]c3cc(F)cc4c3c2CCNC4=O)cc1 | – | human patients | oral, 360 mg twice daily, all grades | – | nausea incidence | 75% |
| CCN1/C(=C/C(C)=O)Sc2ccc(F)cc21 | – | cynomolgus monkey | oral, 10 mg/kg, 2 h post-dose | reference: pre-dose | QTc interval change | 99.2 ± 3.3% |
| N#Cc1ccc2c(c1)[C@H]1CCCN(C(=O)c3ccc4[nH]cnc4c3)[C@H]1C2 | – | human | 40 mg, day 7 | reference: baseline | cortisol level change | -140 nmol/L |
| O=C(Nc1ccc(OC(F)(F)Cl)cc1)c1cnc(N2CC[C@@H](O)C2)c(-c2ccn[nH]2)c1 | per treatment cycle, measured: absolute neutrophil decrease | human patients | oral, dose not given, 28 day cycle, dose-finding study | – | grade ≥3 event rate | 3.8% |
| CCn1ncc2c1-c1cnc(N)c(c1)O[C@H](C)c1cc(F)ccc1-c1nn(C)nc1C2 | – | female athymic nude mice, sample B PDX | oral, 15 mg/kg once daily for 1 days, 12 h | – | unbound plasma trough concentration | 200 ± 17 nM |
| CCCCCNC(=O)N1CCC(CN(Cc2ccc(Cl)cc2)Cc2ccc([N+](=O)[O-])s2)C1 (stereo not drawn) | – | C57BL/6 mice | 100 mg/kg twice daily, 7 days | – | haematocrit | 36.8 ± 2.7% |
| C[C@@H](N)C1CCN(S(=O)(=O)c2cccc3cnccc23)CC1 | – | healthy volunteers | 25 mg, fasted | – | participants with dizziness | 0% |
| Nc1ncn([C@H]2C[C@H](O)[C@@H](CO)O2)c(=O)n1 | – | mouse plasma | 80 ng/mL, -80 °C, three freeze-thaw cycles, no THU | – | mean deviation from nominal | 7.63% |
| Nc1nc2c(nc([N+](=O)[O-])n2[C@@H]2O[C@H](CO)[C@@H](O)[C@H]2O)c(=O)[nH]1 | depurination, RP-HPLC | citrate-phosphate buffer 0.5 mM | 1260 min, pH 5, 37 °C | – | nucleoside remaining fraction | 0.433 |
| CC(C)NCCCC[C@@H]1NC(=O)[C@H](Cc2ccc(O)cc2)NC(=O)[C@H](Cc2ccccc2)NC(=O)CC[C@H](C(=O)N[C@@H](CCCCNC(C)C)C(=O)N[C@@H](CCCCNC(=O)[C@H](CCC(=O)O)NC(=O)[C@H](CCC(=O)O)NC(=O)[C@H](CCC(=O)O)NC(=O)CN2CCN(CC(=O)O)CCN(CC(=O)O)CCN(CC(=O)O)CC2)C(N)=O)NC(=O)CNC(=O)[C@H](Cc2ccc3ccccc3c2)NC(=O)[C@@H](CCCNC(=N)N)NC1=O [gallium-68 labelled] | – | mouse with Z-138 xenograft, bone | intravenous, 1 h | – | tissue uptake | 0.09 %ID/g |
| COc1ccc2c(=O)n(C)c(-c3ccccc3)nc2c1 | – | Sprague-Dawley rat, male, bladder | oral, 30 mg/kg, 0.5 h | reference: bladder over plasma | tissue/plasma ratio | 2.95 |
| O=C(Nc1nc2cccc(-c3ccc(CN4CCS(=O)(=O)CC4)cc3)n2n1)C1CC1 | – | rheumatoid arthritis patients | oral, 75 mg once daily, 4 weeks, TEAE regardless of relatedness | – | incidence of dizziness | 0% |
| CCOc1c([C@H](C)n2nc(C)c3c(N)ncnc32)cc(Cl)c(F)c1[C@@H]1CNC(=O)C1 | – | patients, monotherapy | oral, 5 mg once daily, cycle 1 day 15 | – | Tmax median | 0.5 h |
| C=CCN1CC(=O)N2[C@@H](Cc3ccc(O)cc3F)C(=O)N(Cc3cccc(N4CC(N5CCN(CC)CC5)C4)n3)C[C@@H]2N1C(=O)NCc1ccccc1 | – | advanced solid tumour patients | oral, 120 mg twice daily, any grade, dose-escalation | – | treatment-related AST increased | 25% |
| O=C(Nc1cnccc1Cl)N1CCN(Cc2ccc3c(c2)OC(F)(F)O3)CC1 | multiple ascending dose | young men | 75 mg, treatment-emergent adverse events | – | back pain incidence | 0% |
| Cl.[2H]C([2H])([2H])CC(=O)c1cnc(NC(=O)C2CC2)cc1Nc1cccc(-c2ncn(C([2H])([2H])[2H])n2)c1OC | geometric mean | human | oral, 5 mg single dose, fasted, liquid | – | AUC(0-inf) | 336 ng·h/mL |
| Cn1cc(Nc2nccc(-c3ccc4c(c3)CN(C3COC3)CC[C@H]4NC(=O)c3cn(C(C)(C)C)nn3)n2)cn1 | – | human, whole blood | 150 mg twice daily, day 7 | reference: pre-dose baseline | B cell count change | 38.9% |
| CC(=O)O[C@H]1C(=O)[C@@]2(C)[C@H]([C@H](OC(=O)c3ccccc3)[C@]3(O)C[C@H](OC(=O)[C@H](O)[C@@H](NC(=O)c4ccccc4)c4ccccc4)C(C)=C1C3(C)C)[C@]1(OC(C)=O)CO[C@@H]1C[C@@H]2O | measured: Hypophosphataemia | patients with advanced solid tumours | intravenous, dose not given, all grades, possibly related to drug | – | adverse event incidence | 11% |
| CCCCC/C=C\C/C=C\CCCCCCCC(=O)O.Cc1cc(/C=C/C#N)cc(C)c1Nc1ccnc(Nc2ccc(C#N)cc2)n1 | – | Capmul MCM C8 | – | – | kinetic solubility | ~150 mg/mL |
| O=C1c2ccncc2C(=O)c2c1[nH]c1ccccc21 | – | Sprague-Dawley rat, male, plasma | intravenous, 1 mg/kg | – | MRT | 7.2 ± 0.8 h |

Repeated from above:
| Structure (SMILES) | assay | test system | conditions | how to read | measurement | result |
| --- | --- | --- | --- | --- | --- | --- |
| COc1ccc(CNc2nc(-c3ccc(C(=O)O)cc3)nc3c2c2ccccc2n3C)cc1Cl | – | NSG mice | dose not given, day 3 of treatment | – | body weight | 21 g and 22 g and 23.9 g and 23.1 g |
| CC=CC1CCC(C2CCC(CCC)CC2)CC1 (stereo not drawn) | – | rat, fetus | 5000 ng/mL in perfusate, high dose, mixture of 21 LCMs | – | median fetal accumulation | 0.883 ng/g |
